{"data": "Assay results of several laboratories", "note": "Each line is one published result; not all experiments were run side by side."}
{"Compound": "COc1ncc(-c2nc3c(n2C(C)C)[C@H](c2ccc(Cl)cc2)N(c2cc(Cl)cn(C)c2=O)C3=O)c(OC)n1", "system": "human patients, plasma", "setting": "oral, 50 mg, high-dose arm, cycle 1 day 1", "quantity": "median Tmax", "value": "3 h"}
{"Compound": "CN[C@@H](C)C(=O)N[C@H]1CN(S(=O)(=O)c2cccc(S(=O)(=O)N3CC[C@H]4CC[C@@H](C(=O)NC(c5ccccc5)c5ccccc5)N4C(=O)[C@@H](NC(=O)[C@H](C)NC)C3)c2)CC[C@H]2CC[C@@H](C(=O)NC(c3ccccc3)c3ccccc3)N2C1=O", "system": "human, plasma", "setting": "intravenous infusion once weekly, 20 to 45 mg, infusion 30 min", "quantity": "median Tmax", "value": "0.5 to 0.52 h"}
{"Compound": "COc1nnc2ccc(N3CCC(c4ccc(OCCN5CCN(C)C(=O)[C@H]5C)cc4)CC3)nn12", "system": "human, blood", "setting": "oral, 30 mg once daily", "quantity": "median time to platelet recovery", "value": "6 weeks"}
{"Compound": "C[C@]12C=CC(=O)C=C1CC[C@@H]1[C@@H]2[C@@H](O)C[C@@]2(C)[C@H]1CC[C@]2(O)C(=O)CO", "system": "human, plasma", "setting": "oral, 20 mg prednisone single dose, with: lopinavir–ritonavir", "quantity": "median Tmax", "value": "1 h"}
{"Compound": "CCCCOc1ccc([C@H]2CC[C@H](CCC)CC2)c(F)c1F", "system": "human mother-newborn pairs, cord serum", "setting": "female fetuses", "quantity": "median concentration", "value": "6.56 ng/mL"}
{"Compound": "COc1cc2nccc(Oc3ccc(NC(=O)c4cc5c(n(-c6ccccc6)c4=O)CCCC5=O)nc3)c2cc1OC", "system": "human patients", "setting": "oral, with venetoclax 6 mg once daily", "quantity": "median Tmax", "value": "4.1 h"}
{"Compound": "CC(C)=CCC/C(C)=C/CC/C(C)=C/CC[C@@](C)(O)CCC1=C(C)C(=O)C(C)=C(C)C1=O", "system": "healthy human, plasma", "setting": "oral, 400 mg", "quantity": "median half-life", "value": "10.6 h"}
{"Compound": "CC[C@H](Nc1ncnc2[nH]cnc12)c1oc2ccccc2c(=O)c1-c1cccc(F)c1", "system": "human patients, plasma", "setting": "oral, 600 mg twice daily, with: romidepsin 12 mg/m2", "quantity": "median Tmax", "value": "3 h"}
{"Compound": "O=C(NO)c1ccc(CN(c2cnccn2)c2cnccn2)cc1", "system": "human patients, phase I, plasma", "setting": "oral", "quantity": "median Tmax", "value": "1.3 to 4.5 h"}
{"note": "Excerpt of the above:"}
{"Compound": "COc1cc2nccc(Oc3ccc(NC(=O)c4cc5c(n(-c6ccccc6)c4=O)CCCC5=O)nc3)c2cc1OC", "system": "human patients", "setting": "oral, with venetoclax 6 mg once daily", "quantity": "median Tmax", "value": "4.1 h"}
